Measurements from different studies.
Each line is one published result; not all experiments were run side by side. ± gives the spread as reported.

Structure (SMILES) | cell line | test | conditions | IC50
CCn1nc(Cl)c2c1-c1cnc(N)c(c1)O[C@H](C)c1cc(F)ccc1-c1nn(C)cc1C2 | Ba/F3 EML4-ALK v1, no mutation | cell viability | – | 0.00162 µM
Cc1cc2cc(C(=O)N(Cc3ccc(C(F)(F)F)cn3)[C@H](C)c3ncccn3)ccc2nc1N | HCT-116 MTAP wild type | cell viability, CellTiter-Glo | 6 days | 0.854 µM
C=CC(=O)N1CCCC(n2c(=O)c3ncccc3n(Cc3ccc(Oc4ccccc4)cc3)c2=O)C1 (stereo not drawn) | SU-DHL-2 | cell growth or viability, MTT | 72 h | 20 µM
O=C(NCC1(c2nc(-c3ccccc3)cs2)CCOCC1)c1cccc(-c2noc(C(F)(F)F)n2)c1 | SU-DHL-2 | cell growth or viability, CCK-8 | 7 days | 3.27 µM
Cc1ccccc1/C=C/C(=O)N[C@@H](CO)C(=O)N[C@H](C(=O)N[C@H](Cc1ccccc1)C(=O)O)[C@@H](C)O | SNU-638 | – | – | > 20 µM
COc1cc(C(=O)N/N=C/c2cccc3ccccc23)cc(OC)c1OC | SIL-ALL | cell viability, MTT | 48 h | 0.0423 µM
O=C(O)C(Cc1c[nH]cn1)N1C(=O)c2ccc3c4ccc5c6c(ccc(c7ccc(c2c37)C1=O)c64)C(=O)N(CCN1CCCCC1)C5=O (stereo not drawn) | LNCaP | cell growth or viability, SRB | 72 h | 95.7 µM
CCNC(=S)NN=Cc1c2ccccc2cc2ccccc12.Cc1ccc(C(C)C)cc1.[Cl-].[Cl-].[Ru+2] | CCD-18Co | cytotoxicity, MTS | 24 h | 298 ± 9 µM
CCCC(CCC)C(=O)[O][Pt]([NH2])([NH2])([Cl])([Cl])[O]C(=O)c1ccccc1OC(C)=O | LoVo oxaliplatin-resistant | cytotoxicity, MTT | 72 h | 1.69 ± 0.12 µM
O=C(Nc1ccc(C(=O)Nc2ccc3[nH]ncc3c2)c(F)c1)Nc1cc(C(F)(F)F)ccc1F | KM12-Luc (TPM3-NTRK1) | cell growth, CellTiter-Glo | 72 h | 9.7 ± 0.82 µM
COc1c(C)c(OCc2ccccc2)c(C)c(OCc2ccccc2)c1C(=O)/C=C/c1ccccc1 | KKU-M213 | cell growth or viability, SRB | 72 h | > 50 µM
O=[P@]1(c2ccccc2)CC[C@@H](O)CC1 | SW480 | cell growth or viability, MTT | 72 h | > 100 µM
O=C(/C=C/Sc1ccc(C(F)(F)F)cn1)c1ccccc1 | HEK293T | viability, CellTiter-Glo | 48 h | 5.2 µM
Cn1ncc(-c2ccc3c(=O)[nH]nc(CN)c3c2)c1-c1c(F)c(Cl)cc(OC2CC2)c1C#N | KP-4 | cell viability, inhibitor, CellTiter-Glo | 120 h, baseline-subtracted | 0.05 µM
CCOc1cncc(-c2ccc(NC(=O)C3(c4ccnc(NS(=O)(=O)C5CC5)n4)CCOCC3)nc2)n1 | SNB-75 | cell growth or viability, ATP luminescence | 72 h | 10 µM
C1=[N+]2CCCC[N+]3=Cc4ccc5[n]4[Au-]23[n]2c1ccc2-c1nc2ccccc2nc1-5.F[P-](F)(F)(F)(F)F | HOP-62 lung cancer | cell growth | – | 4 µM
CC(=O)Oc1ccccc1C(=O)[O][Pt]([NH2])([NH2])([Cl])([Cl])[O]C(=O)C(Cl)Cl | LoVo oxaliplatin-resistant | cytotoxicity, MTT | 72 h | > 3.12 µM

Structure (SMILES) | cell line | test | conditions | IC50
CNS(=O)(=O)Nc1nccc(Cc2c(C)c3ccc(Oc4ncccc4F)cc3oc2=O)c1F | WILL-2 | cell viability, CellTiter-Glo | 7 days | > 1 µM
COc1c(C)c(OC(=O)c2ccc3ccccc3c2)c(C)c(O)c1C(=O)/C=C/c1ccccc1 | KKU-M213 | cell growth or viability, SRB | 72 h | > 50 µM
CC[C@@H](C)N1C(=O)C2=Nc3ccccc3CN2C1=S | CEM/ADR5000 (P-gp overexpressing, multidrug-resistant) | cell viability, resazurin | 72 h | inactive
CCCC(CCC)C(=O)[O][Pt]([NH2])([NH2])([Cl])([Cl])[O]C(=O)C(C)c1ccc(CC(C)C)cc1 (stereo not drawn) | LoVo oxaliplatin-resistant | cytotoxicity, MTT | 72 h | 0.84 ± 0.02 µM
O=C(Nc1ccc(C(=O)Nc2ccc3[nH]ncc3c2)c(Br)c1)Nc1cc(C(F)(F)F)ccc1F | KM12-Luc (TPM3-NTRK1) | cell growth, CellTiter-Glo | 72 h | 10.7 ± 0.91 µM
[BH3-][P+]1(C2CCCCC2)CCCCC1 | SW480 | cell growth or viability, MTT | 72 h | > 100 µM
C=CCOc1c(C)c(OC)c(C(=O)/C=C/c2ccccc2)c(OCC=C)c1C | SH-SY5Y | cell growth or viability, SRB | 72 h | > 50 µM
Oc1cccc2c1[nH]c1c(C3=CC4(O)CCC=CCCCCN5CCC3C3(CC6C=CCCCCN6C43)C5)nccc12 (single isomer, unassigned; (+)) | KB | cell growth or viability, neutral red | 48 h | 0.78 µg/mL
CN1CCC(N[C@H]2CCc3[nH]c4c(C(N)=O)ccc(-c5ccccc5Cl)c4c3C2)CC1 | BXPC-3 | cell growth or viability | – | 2.46 µM
CC(C)c1ccc(N(C)c2ccc3c(c2)OCC[C@H]3CNc2cnccc2C(=O)O)cc1 | KYSE-270 | cell growth or viability, ATP luminescence | 7 days | 0.00535 µM
O=C(Nc1cc(C(F)(F)F)ccc1F)Nc1ccc(C(=O)Nc2ccc3[nH]ncc3c2)cc1C(F)(F)F | KM12-Luc (TPM3-NTRK1) | cell growth, CellTiter-Glo | 72 h | 27.1 ± 0.43 µM
CCCCCCCCCCCC(=O)Oc1c(C)c(OC)c2c(/C=C/c3ccccc3)c(CCCCCCCCCC)c(=O)oc2c1C | KKU-M213 | cell growth or viability, SRB | 72 h | > 50 µM
Cc1cc(Cl)cc(-c2ccnc3cc(CN4C(=O)C5C(C4=O)C5(C)C)sc23)c1C[C@@H]1CNCCO1 (stereo partly drawn) | CAPAN-1 | cell viability, SRB | 5 days, mean of replicates | 0.17 µM
[BH3-][P@+]1(c2ccccc2)CC[C@@H](O)CC1 | SW480 | cell growth or viability, MTT | 72 h | > 100 µM
CCCCCCCC(=O)Oc1c(C)c(OC)c2c(/C=C/c3ccccc3)c(CCCCCC)c(=O)oc2c1C | SH-SY5Y | cell growth or viability, SRB | 72 h | > 50 µM
O=C(CN1CCN(C(=O)c2ccc(C(F)(F)F)cc2)CC1)Nc1cccc(C(=O)Nc2ccc3[nH]ncc3c2)c1 | KM12-Luc (TPM3-NTRK1) | cell growth, CellTiter-Glo | 72 h | 49.2 ± 1.69 µM

Repeated from above:
Structure (SMILES) | cell line | test | conditions | IC50
Oc1cccc2c1[nH]c1c(C3=CC4(O)CCC=CCCCCN5CCC3C3(CC6C=CCCCCN6C43)C5)nccc12 (single isomer, unassigned; (+)) | KB | cell growth or viability, neutral red | 48 h | 0.78 µg/mL
O=C(NCC1(c2nc(-c3ccccc3)cs2)CCOCC1)c1cccc(-c2noc(C(F)(F)F)n2)c1 | SU-DHL-2 | cell growth or viability, CCK-8 | 7 days | 3.27 µM
Cc1ccccc1/C=C/C(=O)N[C@@H](CO)C(=O)N[C@H](C(=O)N[C@H](Cc1ccccc1)C(=O)O)[C@@H](C)O | SNU-638 | – | – | > 20 µM
COc1c(C)c(OC(=O)c2ccc3ccccc3c2)c(C)c(O)c1C(=O)/C=C/c1ccccc1 | KKU-M213 | cell growth or viability, SRB | 72 h | > 50 µM
